Measured values of several laboratories.
Every numbered part comes from another study and shows a few of its results, in no order.

Set 1 — technique: protein-binding microarray; form: double-stranded DNA, one strand shown; medium: in vitro; concentration: 2540 nM top; notes: 60-bp whole probe; with: salmon DNA 0.4 mg/ml; relative to: random background probes; direction: higher = stronger binding; endpoint: fitted relative affinity; constant ends, left off below: GCCTAGCAC … GTCTTGATTCGCTTGACGCTGCTG
Target: Interferon regulatory factor 3, full length, phosphomimetic (IRF3, Homo sapiens, UniProt Q14653, residues 1-427, S386D/S396D/S398D/S402D/T404D/S405D)
Target sequence (chain): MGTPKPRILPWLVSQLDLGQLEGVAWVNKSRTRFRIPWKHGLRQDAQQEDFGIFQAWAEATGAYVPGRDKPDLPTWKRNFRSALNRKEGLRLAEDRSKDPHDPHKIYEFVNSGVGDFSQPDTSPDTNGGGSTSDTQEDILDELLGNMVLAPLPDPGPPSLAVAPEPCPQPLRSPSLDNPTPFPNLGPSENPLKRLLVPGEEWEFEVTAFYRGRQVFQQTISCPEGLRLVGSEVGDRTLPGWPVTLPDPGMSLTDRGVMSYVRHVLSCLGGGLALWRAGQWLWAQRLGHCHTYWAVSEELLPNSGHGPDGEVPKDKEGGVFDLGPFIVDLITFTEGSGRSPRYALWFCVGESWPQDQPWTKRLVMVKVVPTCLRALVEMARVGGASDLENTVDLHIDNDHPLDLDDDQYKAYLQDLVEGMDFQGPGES
TCACTTTCTGTTTTCTCACTGTGCTAG: 5.98 z-score
TCACCTCTGCTGCTGGCACTGTGCTAG: -0.232 z-score
TTAGATTTCAGTCACGATTAGTGCTAG: 0.553 z-score
TTCGAATTCAGAATGGGAGAGTGCTAG: 0.774 z-score
TTCGGACTGGGGTATCGGTTAGTGCTA: 0.0228 z-score
TCAGCTGTGGGTTTGAGACTGTGCTAG: -1.03 z-score
GACGGTTCCCTTTTCCTCACGTGCTAG: 5.81 z-score
TTAGGTTTCGGGTTTGGGTTAGTGCTA: 4.94 z-score
ATTCATATATATATGAAAAAGTGCTAG: 1.46 z-score
TACGGACTGGACTATCGGGACGTGCTA: -0.464 z-score
TTCTCTTTCATTGCTGCCCTGTGCTAG: 2.2 z-score
TGAAGACTCTCTTGTCTGGATGTGCTA: -0.732 z-score
ACTCCTATCCAAGTTCCCCTGGTGCTA: 1.2 z-score
GACGAGCTGAGTCTCGAGACGTGCTAG: -0.381 z-score
GACGACATCAGTTTCGAGACGTGCTAG: 2 z-score
TCATCTCTAACCTCTCTAACTGTGCTA: 0.843 z-score
GACGGATTGCTTTTCCTGACGTGCTAG: 0.953 z-score
TTAGGTTTCGGTATCCGTTAGTGCTAG: 7.83 z-score

Set 2 — technique: protein binding microarray; form: double-stranded DNA, one strand shown; medium: in vitro; concentration: not given; relative to: not given; direction: higher = stronger binding; endpoint: E-score
Target: Histone acetyltransferase KAT6A, winged helix 1, GST fusion (KAT6A, Homo sapiens, UniProt Q92794, residues 1-85)
Notes: 8-mer, flanks averaged, mean of 2 arrays, mostly near background
Construct (chain): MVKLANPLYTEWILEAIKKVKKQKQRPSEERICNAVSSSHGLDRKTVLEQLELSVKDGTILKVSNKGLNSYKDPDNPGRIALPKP
AGACCGCA: 0.15
GGTTTGGA: -0.135
ACTTATCC: -0.113
GCAATCGC: 0.189
CTAGCTAG: -0.162
CCCCCATC: -0.181
CAACCAAA: -0.0697
GCCCATAA: 0.171
CCGGATAC: 0.145
AAGTGCGC: 0.318
AAGTTTCC: -0.204
CTGCGCCA: 0.0658
AGTCACCA: -0.133
ATCCCACC: -0.00583
AGTTGCCA: -0.15
CTTGACGA: -0.153
ATGTACAG: -0.167
CCCGACAA: 0.116
TACGTTGA: -0.0438
ATAGTCTA: -0.0514
CTATAGGC: 0.102
GAAACCCA: -0.131

Set 3 — technique: RNA Bind-n-Seq; form: RNA; medium: in vitro; concentration: 365 nM; relative to: no-protein control; direction: higher = stronger binding; endpoint: RBNS enrichment (R)
Target: RNA binding protein fox-1 homolog 2, RRM domain, GST-SBP tag (RBFOX2, Homo sapiens, UniProt O43251-10, residues 100-194)
Notes: natural RNA segment, single round, ends assumed
Constant ends, left off below: GGGAGUUCUACAGUCCGACGAUC … UGGAAUUCUCGGGUGCCAA
Target sequence (chain): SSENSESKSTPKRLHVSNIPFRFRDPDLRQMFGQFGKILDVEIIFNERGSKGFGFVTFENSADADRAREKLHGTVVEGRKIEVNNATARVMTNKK
CUUAGGAGAUGAAAGAAUAUUACCACAUGAGGAGGAGGGGCAGUUGCAACAGAACACUUUGGUCUUCCUACACCAAGUCUGUGAGGGCAUCCAAGACUGAAUGAAAGCGC: 1.88
UUCGGAUAGUAGGCUCUCCCUGCUCCCUUCUCUACAGGAAUCUCUGGAAAACUAUCAGAAGACAAAGUUUGACACCUUGAUACCCACUCUCUGUGAAUACCUACCCCCUU: 0.428
AUACUUAGUGCUGCUGGGUAAUUUGUUGGUAUAUUAUCUGGUUAGUGGUUAAUGCUUCCUUUAAAAAUAAUUGAGUCAUCCAUUCACUCUUUUUCAGUUUUAUCUGUCAA: 0.438
AAAUGCCAAAGGAAGGAAGCCUCAGGGACAGGCUGCAACUUGGAGCCCAGCGCAUCACUCUCGGCUUGCUGGUGCAGUUCACCAUCUCACUGGCCCUACAACUGCCUUAG: 0.469
CUACUGUUUCUUCAUGUAAUGACCAAAAGAGUCCCACCAGCUCCAGGCAGAGCUUGUGGAGAUUCAUGAAAGAGUCAUAGCCAGUUUGGCAUGCAGAGGUCUUCAGUCUU: 0.236
UGUAGCUAUGGAAGUUGCAUAAUUAUUAUUAUUAUUAUUAUAACAAGUGUGUCUUACGUGCCACCACGGCGUUGUACCUGUAGGACUCUCAUUCGGGAUGAUUGGAAUAG: 1.29
GAUAUUUUCAGAUAACUAGGAUAACUUGUUGCUUUGUUACCCAGCCUAAUUGAAGAGUGGCAGAGGCUACUACAAAAAGCAACCUUUUCAUUUUCACUAAGAGUUUAAAA: 0.318
GGACUAUUAAAGAAUGUUUUGGAAUAAACUGUCUUUUUCCUCAAUGAAUGGGAUGUCUAAUGUAUUUCAAAAUCACCCAAAACUUUUGGCAAAUAAAAGCAUUUAAAAAG: 0.42
UUUUAAAGGUAAAUUGCACUUUUAAAAAUUGGUUGACUUAAUAUAUUUGCUCUUUUUUUUUUUUUACCUGCACUUAGAGAGGAAAUUUGAACACCAGAAACCACUUUUUU: 1.55
GGGCUCUCUAGGGGCCUCCCCGCCCCAACAGCAAGCAGUUGUUAGCUCUUGGAACCCUCCAGAGGAAGAGGCAAGCGUUUGACUUCCCCUUUACCACCUGAGGCCUCCUU: 0.19
CAAAUCUGAGAUCACAUGAUCUUUACACUGCUAAUUCAUAAAGAUGCAUAAUACAGAAAGCCUGUGAACACAUGGAAGAUGAUCCUCAUGGUAUGUAUGGUCUGUGUCUU: 0.531
AUGGAUAAUUGCUUCACAGCCUUGGCCAUCCUGGCUCAGCUCUCAAUUUAGUAUAAUAUGCAGUUCCUGUGCCUCCAGACUAUGCAGCUCAUCACCCUAGGUUCUACAGG: 0.25

Set 4 — technique: RNA Bind-n-Seq; form: RNA; medium: in vitro; concentration: 1 µM; notes: whole 134-nt RNA, ends assumed; with: 150 mM KCl; relative to: input library; direction: higher = stronger binding; endpoint: log2 enrichment
Target: Ras GTPase-activating protein-binding protein 1, RRM domain (G3BP1, Homo sapiens, UniProt Q13283)
Sequence of UniProt Q13283 (whole entry, looked up): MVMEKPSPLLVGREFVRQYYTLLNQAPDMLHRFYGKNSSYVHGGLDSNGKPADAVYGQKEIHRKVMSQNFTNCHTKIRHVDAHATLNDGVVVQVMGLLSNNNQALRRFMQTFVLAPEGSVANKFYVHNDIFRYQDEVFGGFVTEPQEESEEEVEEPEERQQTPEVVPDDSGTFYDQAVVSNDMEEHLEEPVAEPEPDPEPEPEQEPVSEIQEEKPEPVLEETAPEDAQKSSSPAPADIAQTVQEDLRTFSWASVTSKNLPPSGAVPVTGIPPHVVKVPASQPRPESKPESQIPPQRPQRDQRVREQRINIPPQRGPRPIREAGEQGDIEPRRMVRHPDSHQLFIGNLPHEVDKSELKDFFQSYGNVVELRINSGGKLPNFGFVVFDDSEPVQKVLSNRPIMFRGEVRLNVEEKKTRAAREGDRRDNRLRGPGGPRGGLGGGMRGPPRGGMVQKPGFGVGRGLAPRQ
Constant ends, left off below: GGGAGUUCUACAGUCCGACGAUC … UGGAAUUCUCGGGUGUCAAGG
UCCUCAAGUCCUGUGCUACACAUCGUAUGUACCGAAUCGGCGGCGGGGCGGAAAGUAUUAUGUUACGCCGUUCGGAUCUGCACUUCCAGC: -0.233
UAACUUUAGAGGAGGAUCUGAUGGAUAUGGCAGUGGACGUGGAUUUGGGGAUGGCGAUAAUGGGUAUGGAGGAGGACCUGGAGGUGGCAA: -0.355
AAGUCCUGUGCUACACAUCGUAUGUACCGAAUCGGAGGAAAAAAAGGUUUUUUUGGAAAGUAUUAUGUUACGCCGUUCGGAUCUGCACUU: -0.2
GCAGGAAGUAAAAACAAAUGGAAAUGCUUCGGAUAGUGGCAGGGGUGGGGGUUGCUAAGGAAAGGGUGGGAUGGGAGUGGGUAAAGCGUU: 1.27
UUGUGGUAUUUUAUUUACUUAUUUUUUUAAAUCUUCCAUUACAGCCAUGCCUUUCUUGGACAUCCAGAAAAGGUUCGGCCUUAACAUAGA: -1.24
CACAGACAACACGCACCCACACAGACACAGAGGGAAGGGGUUGGGAUGGGGACAGGGUGCUCAGCAGGGCGGGGUAGGACCCCAGCCCCU: -0.22
UGGGAGGUGGAUUUUGUUUAUUUUUUUAGCUCAUUUCCAGGGGUGGGAAUUUCUUUUUAAUAUGUGUCAUGAAUAAAGUUGUUUUUGAAA: 2.22
UCAAGUCCUGUGCUACACAUCGUAUGUACCGAAUCGGUUUGGUUUGGUUUGGGGAAAGUAUUAUGUUACGCCGUUCGGAUCUGCACUUCC: -0.292
UCAAGUCCUGUGCUACACAUCGUAUGUACCGAAUCGGGGAAGGGAAGGGAAGGGGAAAGUAUUAUGUUACGCCGUUCGGAUCUGCACUUC: 0.915
UCCUGUGCUACACAUCGUAUGUACCGAAUCAAACCCAAAUUUUUUUAAAUUUUUUUAAAAAAGUAUUAUGUUACGCCGUUCGGAUCUGCA: -0.342
AGUCCUGUGCUACACAUCGUAUGUACCGAAUCGGGGUGGGGUUUUUGGGGAAAGGGGAAAGUAUUAUGUUACGCCGUUCGGAUCUGCACU: 0.88
CACAGACAACACGCACCCACACAGACACAGAGGGAAGGGGUUCGGAUGGGGACAGGGUGCACAGCAGGGCGGGGUAGGACCCCAGCCCCU: 0.521
GCAGGAAGUAAAAACAAAUGGAAAUGCUUCGGAUAGUGGCAGGGGUGGGGGUUGCUAAGGAAAGGGUGGGAUGAGAGUGGGUAAAGAGUU: 0.841
ACCAUGCAGGUGGGCAUCUUUGGGAAGUGGGGCAAGGGGGGGAUAGGGAGGGGGGUAACACUUUGGGAACAGGUGGUCCCAGGAAAUUUC: -0.342

Set 5 — technique: universal PBM; form: double-stranded DNA, one strand shown; medium: in vitro; concentration: not given; direction: higher = stronger binding; endpoint: E-score
Target: Sal-like protein 4, full length isoform B (SALL4, Homo sapiens, UniProt Q9UJQ4-2, residues 1-616)
Notes: 8-mer, flanks averaged, mean of replicates
ACCATGTA: 0.104
ACTACGTA: 0.157
CCTTCTCC: -0.2
AGCCGAGG: -0.2
CACAATAC: 0.132
TGGAGAAA: -0.00611
ACTCTCAT: 0.0839
AGTGTCCC: -0.22
CTTTTGTA: 0.217
CCGAGCGC: -0.264
AATACTAG: 0.208
GCAAAGGA: -0.0853
GCGAGAGA: -0.176
CATTGTAA: 0.19
ACGAGGGC: -0.336
TAATTGTA: 0.344
ATTCGTTG: -0.083
CGAGGAAA: 0.0747
AGTGCCGC: -0.167
TCAAGGAA: 0.0542
ACCCAACT: -0.00117
CTAGATAG: 0.0468
TTACGCAA: 0.105
GAGCAAAC: 0.0536
GACAATCC: -0.0373

Single results of other studies — organism: Saccharomyces cerevisiae; observed: binding; technique: competitive growth deep sequencing; form: peptide; concentration: concentration not given; direction: direction not given
LLKRLQDVVSERA
growth enrichment score (cyclin E1-Cln2 fusion strain; peptide library 2): 0.642

NCKKRRALDFLSRLPL
growth enrichment score (cyclin D3-Cln2 fusion strain; tiling library, Cln2 subtracted): 0.295

Some of these lines once more (set 5):
TGGAGAAA: -0.00611
ACTCTCAT: 0.0839
AGTGTCCC: -0.22
CTTTTGTA: 0.217
CCGAGCGC: -0.264
AATACTAG: 0.208
